Published values of several laboratories.

Structure (SMILES)	assay	system	setting	Tmax
Cn1ncnc1[C@H]1c2n[nH]c(=O)c3cc(F)cc(c23)N[C@@H]1c1ccc(F)cc1		human patients, plasma	oral, 400 µg/m2 twice daily day 1, day 5, dose level DL2, median, with: temozolomide 20 mg/m2 daily days 2-6	2 h
COc1ncc(-c2nc3c(n2C(C)C)[C@H](c2ccc(Cl)cc2)N(c2cc(Cl)cn(C)c2=O)C3=O)c(OC)n1	LC-MS/MS, noncompartmental	human, plasma	oral, 150 mg, C1D1, high-dose, median	2 h
COc1nnc2ccc(N3CCC(c4ccc(OCCN5CCN(C)C(=O)[C@H]5C)cc4)CC3)nn12		human, plasma	oral, 30 mg once daily, multiple dose, monotherapy	1 h
Cc1ncnc2c1ccn2[C@@H]1C[C@H](Oc2cc(C(F)F)c(F)c3c2CNCC3)[C@@H](O)[C@H]1O		human	4 mg twice daily, multiple dose, median	0.5 h
Cc1cn(C(=O)c2c(-c3c(Cl)cc(Cl)cc3Cl)noc2C(C)(C)F)c2cccc(/C=C/C(=O)O)c12		human patients	500 mg bid, cycle 1 day 1	3.97 h
Cc1cc(-c2nnc(N)nc2-c2ccc(F)cc2)cc(Cl)n1		human patients, plasma	oral, 75 mg capsule once daily, multiple doses, median	4 h
Cc1cc(-c2nccc3c2ccn3CC(=O)Nc2ccc(-c3cnccn3)cn2)ccn1		human, plasma	oral, 5 mg once daily, day 16, median	1.25 h
Cc1noc(C)c1-c1cc(C(O)(c2ccccn2)c2ccccn2)c2nc(C3CC3)[nH]c2c1		human patients, fasted, plasma	oral, 6 mg once daily, cycle 1 day 8	1.42 h
